Assay results from different studies.
Protocols differ between the studies behind these lines.
Organism: Mycobacterium tuberculosis

| SMILES | test | system | conditions | MIC |
| --- | --- | --- | --- | --- |
| CO[C@H]1/C=C/O[C@@]2(C)Oc3c(C)c(O)c4c(O)c(c(/C=N/N5CCN(C)CC5)c(O)c4c3C2=O)NC(=O)/C(C)=C\C=C\[C@H](C)[C@H](O)[C@@H](C)[C@@H](O)[C@@H](C)[C@H](OC(C)=O)[C@@H]1C |  | H37Rv wild type |  | 0.5 µg/mL |
| O=C(CNc1ccccc1)NC1CCCCCC1 |  | H37Rv mc2 6206 |  | ≥ 64 µg/mL |
| CN1CCN(c2ccc(Nc3nccc(-c4ccc(Cl)cc4)n3)cc2C(F)(F)F)CC1 |  | H37Rv auxotroph |  | 25 µM |
| COC(=O)C=C1SC(=NN=Cc2ccc(OC(=O)CN3C(=O)CSC3=O)cc2)NC1=O | Alamar blue | 192 |  | 69.2 µM |
| NNC(=O)c1ccncc1 |  | H37Rv wild type |  | 0.078 µg/mL |
| NC(=S)NN=Cc1ccc(OC(=O)CN2C(=O)CSC2=O)cc1 | Alamar blue | 192 |  | 2.84 µM |
| Cc1nc2[nH]c(=O)n(O)c(=O)c2s1 | growth |  | added: valine, isoleucine and leucine 1 mM | > 30 µM |
| C=CCOC(=O)c1ccc(O)cc1 |  | pabC deletion mutant | concentration not given, 12 days | 50 µM |
| CC(C)C[C@H](NC(=O)[C@H](C)NC(=O)[C@H](CCC(=O)O)NC(=O)[C@@H](N)Cc1c[nH]cn1)C(=O)N[C@@H](CO)C(=O)N[C@@H](CC(=O)O)C(=O)N1CCC[C@H]1C(=O)N[C@@H](CC(=O)O)C(=O)O |  | H37Rv |  | > 100 µg/mL |
| C[C@H]1COC2(CCN(c3nc(=O)c4cc(C(F)(F)F)cc([N+](=O)[O-])c4s3)CC2)O1 |  | H37Rv |  | < 0.39 µM |
| c1ccc(-c2nc3cc(Nc4nccn4-c4cc(NC5CCCC5)ncn4)ccc3[nH]2)cc1 |  |  |  | > 20 µM |
| O=[N+]([O-])c1cn2c(n1)OC[C@@H](OCc1ccc(OC(F)(F)F)cc1)C2 |  | H37Rv wild type |  | 0.312 µg/mL |
| CN1CCN(c2ccc(Nc3nccc(-c4ccc5ccccc5c4)n3)cc2C(F)(F)F)CC1 |  | H37Rv auxotrophic strain |  | 6.6 µg/mL |
| CCCCCCC#Cc1cncc(-c2nnc(SCc3ccc(Cl)cc3)n2C)c1 | broth microdilution | H37Rv |  | 19 µM |
| CN1CCN(c2ccc(Nc3nccc(-c4ccccc4)n3)cc2C(F)(F)F)CC1 |  | H37Ra ATCC 25177 | median | 10.3 µg/mL |
| C#CCOc1ccc2oc(-c3ccc(OC)cc3)c(C(=O)OCC)c2c1CN1CCCCC1 |  | CDC1551 |  | 1.8 µM |
| CCCCCCCCCCC[C@@H](C[C@@H]1OC(=O)[C@H]1CC1CCCCC1)OC(=O)[C@H](CC(C)C)NC=O | resazurin microtiter | H37Ra |  | 16 µM |
| CN1CCN(c2ccc(Nc3nccc(-c4cccc(Cl)c4)n3)cc2C(F)(F)F)CC1 |  | H37Rv auxotrophic strain |  | 5.6 µg/mL |

| SMILES | test | system | conditions | MIC |
| --- | --- | --- | --- | --- |
| NC[C@H]1O[C@H](O[C@H]2[C@H](O)[C@@H](O[C@H]3O[C@H](CO)[C@@H](O)[C@H](N)[C@H]3O)[C@H](N)C[C@@H]2N)[C@H](O)[C@@H](O)[C@@H]1O |  | H37Rv |  | 2.5 µg/mL |
| COC(=O)c1c(NC(=O)c2c(F)c(F)c(F)c(F)c2F)sc2c1CCCCC2 | MABA | H37Rv |  | 1.5 µM |
| CN1CCN(c2ccc(Nc3nccc(-c4ccnc(Cl)c4)n3)cc2C(F)(F)F)CC1 |  | H37Ra ATCC 25177 | median | 14 µg/mL |
| CS(=O)(=O)Nc1ncn(-c2cc(F)c(COc3ccc(OS(=O)(=O)F)cc3)c(F)c2)n1 |  | Erdman drug-susceptible lineage 4 |  | 0.063 µM |
| CC(=O)NC[C@H]1CN(c2ccc(N3CCOCC3)c(F)c2)C(=O)O1 |  | H37Rv wild type |  | 1.25 µg/mL |
| COc1cccc(-c2ccnc(Nc3ccc(N4CCN(C)CC4)c(C(F)(F)F)c3)n2)c1 |  | H37Rv auxotrophic strain |  | 13 µg/mL |
| CO[C@H]1/C=C/O[C@@]2(C)Oc3c(C)c(O)c4c(O)c(c(/C=N/N5CCN(C)CC5)c(O)c4c3C2=O)NC(=O)/C(C)=C\C=C\[C@H](C)[C@H](O)[C@@H](C)[C@@H](O)[C@@H](C)[C@H](OC(C)=O)[C@@H]1C |  | H37Rv | low oxygen | 0.03 µM |
| CN1CCN(c2ccc(Nc3nccc(-c4cccc([N+](=O)[O-])c4)n3)cc2C(F)(F)F)CC1 |  | H37Ra ATCC 25177 | median | 9.9 µg/mL |
| NC(=S)NN=Cc1ccc(OC(=O)CN2C(=O)CSC2=O)c(Br)c1 | Alamar blue | 192 |  | 18.6 µM |
| CCCCCCC#Cc1cncc(-c2nnc(SCc3ccc([N+](=O)[O-])cc3)n2C)c1 | broth microdilution | H37Rv |  | 37 µM |
| CC(C)C[C@H](NC(=O)[C@@H](N)CO)C(=O)N[C@@H](CCC(=O)O)C(=O)N[C@H](C(=O)N[C@H](C(=O)N[C@@H](CCC(=O)O)C(=O)N[C@@H](C)C(=O)N[C@@H](CC(=O)O)C(=O)O)[C@@H](C)O)C(C)C |  | H37Rv |  | > 200 µg/mL |
| CN1CCN(c2ccc(Nc3nccc(-c4ccnc(NCc5ccccc5)c4)n3)cc2C(F)(F)F)CC1 |  | H37Rv auxotroph |  | > 100 µM |
| Cc1cn(C2CCN(Cc3cccc(Oc4ccccc4)n3)CC2)c(=O)[nH]c1=O |  | H37Rv |  | > 250 µg/mL |
| CO[C@H]1/C=C/O[C@@]2(C)Oc3c(C)c(O)c4c(O)c(c(/C=N/N5CCN(C)CC5)c(O)c4c3C2=O)NC(=O)/C(C)=C\C=C\[C@H](C)[C@H](O)[C@@H](C)[C@@H](O)[C@@H](C)[C@H](OC(C)=O)[C@@H]1C | Alamar blue | 192 |  | 0.152 µM |
| CC[C@@H](CO)NCCN[C@@H](CC)CO |  |  | compound alone | 12.5 µM |
| COc1cc(C=NNC(N)=S)ccc1OC(=O)CN1C(=O)CSC1=O | Alamar blue | 192 |  | 5.23 µM |
| [H]/N=C(/N)N[C@H]1[C@H](O)[C@@H](O)[C@H](O[C@@H]2O[C@@H](C)[C@](O)(C=O)[C@H]2O[C@@H]2O[C@@H](CO)[C@H](O)[C@@H](O)[C@@H]2NC)[C@@H](N/C(N)=N\[H])[C@@H]1O | Microplate Alamar Blue | H37Rv | 5 days, 37 °C | 0.5 µg/mL |
